{"data": "Published values from different studies", "note": "Each numbered part is a random draw from the data of one study; scales do not carry over between parts."}
{"data": "Series 1", "target": "Centromere-binding protein 1, full length, His-tagged (CBF1, Saccharomyces cerevisiae, UniProt P17106, residues 1-351)", "technique": "competition protein-binding microarray", "form": "double-stranded DNA, one strand shown", "medium": "in vitro", "concentration": "2 µM", "setting": "whole 60-bp probe, lowest competitor level", "with": "Pho4 competitor, 0.05 µM", "direction": "higher = stronger binding", "shared flanks, not repeated": "… GTCTTGATTCGCTTGACGCTGCTG", "sequence of UniProt P17106 (whole entry, looked up)": "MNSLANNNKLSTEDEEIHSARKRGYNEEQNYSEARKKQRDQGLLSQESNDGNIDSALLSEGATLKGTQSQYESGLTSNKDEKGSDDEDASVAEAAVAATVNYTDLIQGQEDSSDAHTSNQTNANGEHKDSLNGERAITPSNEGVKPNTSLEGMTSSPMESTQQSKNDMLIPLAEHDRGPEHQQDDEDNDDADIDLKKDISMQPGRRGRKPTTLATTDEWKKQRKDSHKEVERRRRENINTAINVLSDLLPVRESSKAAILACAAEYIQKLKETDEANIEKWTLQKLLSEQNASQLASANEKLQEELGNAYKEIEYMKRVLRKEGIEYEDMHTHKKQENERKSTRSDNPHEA"}
{"Sequence": "ATTAGTAATAGCCATCACGTGATGGTCCCTGGAAAG", "fluorescence intensity": "12100 a.u."}
{"Sequence": "TTGGCGTTTGACTGTCACAGTCCCAAATCCTTGCAG", "fluorescence intensity": "63.5 a.u."}
{"Sequence": "CATACCCAACCTTGACAGGTGGGTGAAGATATTTGT", "fluorescence intensity": "66.3 a.u."}
{"Sequence": "CAGTGAGATTACGCAGCCGTGCGATTCAGGGACAGA", "fluorescence intensity": "55.1 a.u."}
{"Sequence": "AATCCTATTAAATTGCGCGTGGGAGTTTAAATGGGT", "fluorescence intensity": "109 a.u."}
{"Sequence": "GTCTTGTCTCATTTTCACGTGACCTTCCCCACTTCA", "fluorescence intensity": "5000 a.u."}
{"Sequence": "GTCTTGTCTCATTGCCCTGTGGGTGTCCCCACTTCA", "fluorescence intensity": "71.3 a.u."}
{"Sequence": "AATATTTCGTCGAGTCACGTAAGTGCAAGGTAATAA", "fluorescence intensity": "101 a.u."}
{"Sequence": "TCATAGAGACTTCCACGCGTGGCAAGGTGATTGGCC", "fluorescence intensity": "75.7 a.u."}
{"Sequence": "CATACCCAACCTTGGCCCGTGGGTGAAGATATTTGT", "fluorescence intensity": "71.6 a.u."}
{"Sequence": "ATTTCCCACTTCAACAACGTGCAATAATGGCTCAAT", "fluorescence intensity": "126 a.u."}
{"Sequence": "AAGGCAACTTCCCTACACGTTGAAGTGCCAATTTTT", "fluorescence intensity": "70.9 a.u."}
{"Sequence": "CTAACGAAGGTTTGGTGAGTGGGTGACAAGCCAAGT", "fluorescence intensity": "77.5 a.u."}
{"Sequence": "AATTTTTACGCTCCACACGTCATCGACATCTAAATA", "fluorescence intensity": "96.2 a.u."}
{"Sequence": "GTCTTGTCTCATTGCACCGTGGGTGTCCCCACTTCA", "fluorescence intensity": "81.2 a.u."}
{"data": "Series 2", "target": "Fragile X messenger ribonucleoprotein 1, C-terminal low-complexity region (Fmr1, Mus musculus, UniProt P35922)", "technique": "RNA Bind-n-Seq", "form": "RNA", "medium": "in vitro", "concentration": "200 nM", "setting": "whole 134-nt RNA, ends assumed", "with": "150 mM LiCl", "relative to": "input library", "direction": "higher = stronger binding", "all molecules": "7-deaza-guanosine replaces G", "shared flanks, not repeated": "GGGAGUUCUACAGUCCGACGAUC … UGGAAUUCUCGGGUGUCAAGG"}
{"Sequence": "GUCCUGUGCUACACAUCGUAUGUACCGAAUCGGAAAAAGGGGAAAAAGGGGAAAAAGGAAAGUAUUAUGUUACGCCGUUCGGAUCUGCAC", "log2 enrichment": 0.201}
{"Sequence": "UCCUCAAGUCCUGUGCUACACAUCGUAUGUACCGAAUCGGUGGAAAGGUGGAAAGUAUUAUGUUACGCCGUUCGGAUCUGCACUUCCAGC", "log2 enrichment": 0.1}
{"Sequence": "UAACUUUAGAGGAGGAUCUGAUGGAUAUGGCAGUGGACGUGGAUUUGGGGAUGGCUAUAAUGGGUAUGGACGAGGACCUGGAGGUGGCAA", "log2 enrichment": 0.0965}
{"Sequence": "UAACUUUAGAGGAGGAUCUGAUGGAUAUGGCACUGGACGUGGAUUUGGGGAUGGCUAUAAUGGGUAUGGAGGAGGACCUGGAGGUGGCAA", "log2 enrichment": 0.445}
{"Sequence": "UCCUCAAGUCCUGUGCUACACAUCGUAUGUACCGAAUCGGAGGGGAGGAGGGAAAGUAUUAUGUUACGCCGUUCGGAUCUGCACUUCCAG", "log2 enrichment": -1.24}
{"Sequence": "CAAGUCCUGUGCUACACAUCGUAUGUACCGAAUCGGGGAAAGGGGAAAGGAAAGGAAAGUAUUAUGUUACGCCGUUCGGAUCUGCACUUC", "log2 enrichment": -0.184}
{"Sequence": "UCCCGACAUCUGUGGCCCUGGCACCAAGAAGGUUCAUGUCAUCUUCAACUACAAGGGCAAGAACGUGCUGAUCAACAAGGACAUCCGUUG", "log2 enrichment": -0.151}
{"Sequence": "GUCCUGUGCUACACAUCGUAUGUACCGAAUCAAACCCCCAAACCCCCAAACCCCCAAAAAAGUAUUAUGUUACGCCGUUCGGAUCUGCAC", "log2 enrichment": -0.254}
{"Sequence": "GAUUCCCUCCACAUGCUGCACGCGCAUCUCGCCCCCAGGGGCACUGCCUGGAAGAUUCAGGAGCCUGGGCGGCCUUCGCUUACUCUCACC", "log2 enrichment": 2.19}
{"Sequence": "UGGCCCUGGUGGCAUGCGGGGAGGAAGAGGUGGCCUCAUGGAUCGUGGUGGUCCCGGUGGAAUGCUCAGAGGUGGCCGUGGUGGAGACAG", "log2 enrichment": -0.789}
{"Sequence": "UAACUUUAGAGGAGGAUCUGAUGGAUAUGGCAGUGGACGUGGAUUUGGGGAGGGCUAUAAUGGGUAUGGAGGAGGACCUGGAGGUGGCAA", "log2 enrichment": 0.674}
{"data": "Series 3", "target": "Sal-like protein 4, full length isoform A (SALL4, Homo sapiens, UniProt Q9UJQ4, residues 1-1053)", "technique": "universal PBM", "form": "double-stranded DNA, one strand shown", "medium": "in vitro", "concentration": "600 nM", "setting": "8-mer, flanks averaged, mean of replicates", "direction": "higher = stronger binding", "sequence of UniProt Q9UJQ4 (whole entry, looked up)": "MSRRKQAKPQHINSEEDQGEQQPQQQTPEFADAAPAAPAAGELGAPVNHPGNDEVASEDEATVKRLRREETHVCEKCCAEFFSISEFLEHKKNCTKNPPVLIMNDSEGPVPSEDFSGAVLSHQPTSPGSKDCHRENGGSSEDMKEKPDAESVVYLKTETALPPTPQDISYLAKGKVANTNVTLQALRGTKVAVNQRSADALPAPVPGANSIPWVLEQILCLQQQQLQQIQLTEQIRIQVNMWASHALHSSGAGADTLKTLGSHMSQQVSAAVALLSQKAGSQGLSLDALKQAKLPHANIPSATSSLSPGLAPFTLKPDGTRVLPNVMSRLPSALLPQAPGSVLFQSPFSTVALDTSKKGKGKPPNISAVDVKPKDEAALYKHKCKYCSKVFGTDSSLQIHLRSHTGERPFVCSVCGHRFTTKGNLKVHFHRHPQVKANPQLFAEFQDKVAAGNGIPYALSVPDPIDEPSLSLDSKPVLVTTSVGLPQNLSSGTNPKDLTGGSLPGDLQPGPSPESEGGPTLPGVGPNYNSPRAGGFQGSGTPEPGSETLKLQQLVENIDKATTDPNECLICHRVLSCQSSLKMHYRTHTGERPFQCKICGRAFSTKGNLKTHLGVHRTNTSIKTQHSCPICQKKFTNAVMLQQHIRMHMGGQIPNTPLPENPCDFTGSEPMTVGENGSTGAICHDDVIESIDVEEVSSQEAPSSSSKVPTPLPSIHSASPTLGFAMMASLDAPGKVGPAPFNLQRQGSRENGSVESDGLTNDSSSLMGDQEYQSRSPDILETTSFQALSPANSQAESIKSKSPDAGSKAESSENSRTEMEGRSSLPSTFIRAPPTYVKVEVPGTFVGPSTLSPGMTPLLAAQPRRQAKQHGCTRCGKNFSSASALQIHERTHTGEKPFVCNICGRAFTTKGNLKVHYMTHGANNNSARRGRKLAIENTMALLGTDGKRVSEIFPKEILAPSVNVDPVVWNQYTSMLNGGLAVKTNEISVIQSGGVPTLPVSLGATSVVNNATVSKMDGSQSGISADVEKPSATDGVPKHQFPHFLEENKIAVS"}
{"Sequence": "AGAGTCAA", "E-score": 0.0291}
{"Sequence": "CAAATTAC", "E-score": 0.177}
{"Sequence": "AATTACAC", "E-score": 0.188}
{"Sequence": "TGCTCCAA", "E-score": -0.0264}
{"Sequence": "GAACTAGA", "E-score": 0.117}
{"Sequence": "ACTGCGAC", "E-score": -0.159}
{"Sequence": "CCCCAAGA", "E-score": -0.196}
{"Sequence": "GGCCAGCC", "E-score": -0.41}
{"Sequence": "ATAATTCG", "E-score": 0.321}
{"Sequence": "CCCAAACA", "E-score": 0.0619}
{"Sequence": "GAGCTAAC", "E-score": -0.0127}
{"Sequence": "CCACCACA", "E-score": -0.00307}
{"Sequence": "CCCGCGCC", "E-score": -0.364}
{"Sequence": "CAGGTGCA", "E-score": -0.14}
{"data": "Single results of other studies"}
{"Molecule": "PhoQ, residues 284 288 289 292 302 303 ASVMEA", "target": "PhoP, residues 12 14 15 18 19 VQALL (Escherichia coli, UniProt P23836)", "test": "Sort-seq, item: YFP reporter", "system": "E. coli", "conditions": "PhoQ-PhoP variant library, with: 10 µM Mg2+", "scale": "relative to: high Mg2+ state, higher = stronger signaling", "measurement": "fold induction", "result": 17.7}
